Results collected from several papers.
Compare with care: the assays were run in different laboratories. ± marks the error that the study gave.
Rhomboid protease AarA: Rhomboid protease AarA (Providencia stuartii, UniProt P46116)
Sequence of UniProt P46116 (whole entry, looked up): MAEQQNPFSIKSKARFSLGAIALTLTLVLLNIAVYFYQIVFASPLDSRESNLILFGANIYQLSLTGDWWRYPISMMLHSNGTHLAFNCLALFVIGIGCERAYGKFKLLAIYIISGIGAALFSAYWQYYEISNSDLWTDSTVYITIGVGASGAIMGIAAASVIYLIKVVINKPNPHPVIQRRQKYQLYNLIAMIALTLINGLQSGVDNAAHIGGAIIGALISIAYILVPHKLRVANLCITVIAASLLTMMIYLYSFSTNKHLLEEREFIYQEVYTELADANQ
PPARG: Peroxisome proliferator-activated receptor gamma (PPARG, Homo sapiens, UniProt P37231)
Sequence of UniProt P37231 (whole entry, looked up): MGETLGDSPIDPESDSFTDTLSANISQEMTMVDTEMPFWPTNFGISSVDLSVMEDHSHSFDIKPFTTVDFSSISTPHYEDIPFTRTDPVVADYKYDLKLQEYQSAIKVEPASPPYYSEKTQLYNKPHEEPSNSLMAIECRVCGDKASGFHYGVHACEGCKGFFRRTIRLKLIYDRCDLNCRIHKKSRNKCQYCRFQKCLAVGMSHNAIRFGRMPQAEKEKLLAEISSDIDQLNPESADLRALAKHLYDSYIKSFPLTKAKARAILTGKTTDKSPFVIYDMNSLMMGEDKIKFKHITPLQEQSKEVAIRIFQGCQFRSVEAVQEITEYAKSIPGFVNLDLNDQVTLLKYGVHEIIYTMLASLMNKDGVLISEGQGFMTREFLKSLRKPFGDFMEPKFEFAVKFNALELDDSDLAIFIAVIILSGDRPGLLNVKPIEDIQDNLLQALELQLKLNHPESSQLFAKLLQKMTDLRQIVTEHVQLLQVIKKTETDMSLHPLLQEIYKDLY
PPARG ligand-binding domain: Peroxisome proliferator-activated receptor gamma, ligand-binding domain (PPARG, Homo sapiens, UniProt P37231)
HDAC1: Histone deacetylase 1 (HDAC1, Homo sapiens, UniProt Q13547)
Sequence of UniProt Q13547 (whole entry, looked up): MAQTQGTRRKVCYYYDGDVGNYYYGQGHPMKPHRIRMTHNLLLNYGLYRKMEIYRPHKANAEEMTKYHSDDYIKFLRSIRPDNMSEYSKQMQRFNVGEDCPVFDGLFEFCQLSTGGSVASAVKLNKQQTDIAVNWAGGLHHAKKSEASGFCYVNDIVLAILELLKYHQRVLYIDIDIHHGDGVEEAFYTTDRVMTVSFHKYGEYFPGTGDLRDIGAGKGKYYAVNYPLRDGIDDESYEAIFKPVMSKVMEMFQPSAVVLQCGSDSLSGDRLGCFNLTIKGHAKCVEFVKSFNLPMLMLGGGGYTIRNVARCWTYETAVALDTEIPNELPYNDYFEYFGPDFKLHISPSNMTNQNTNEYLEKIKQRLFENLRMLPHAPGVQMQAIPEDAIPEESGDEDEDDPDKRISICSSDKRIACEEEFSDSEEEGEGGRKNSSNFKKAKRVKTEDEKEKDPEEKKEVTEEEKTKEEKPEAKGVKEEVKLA
Sequence of UniProt P10721 (whole entry, looked up): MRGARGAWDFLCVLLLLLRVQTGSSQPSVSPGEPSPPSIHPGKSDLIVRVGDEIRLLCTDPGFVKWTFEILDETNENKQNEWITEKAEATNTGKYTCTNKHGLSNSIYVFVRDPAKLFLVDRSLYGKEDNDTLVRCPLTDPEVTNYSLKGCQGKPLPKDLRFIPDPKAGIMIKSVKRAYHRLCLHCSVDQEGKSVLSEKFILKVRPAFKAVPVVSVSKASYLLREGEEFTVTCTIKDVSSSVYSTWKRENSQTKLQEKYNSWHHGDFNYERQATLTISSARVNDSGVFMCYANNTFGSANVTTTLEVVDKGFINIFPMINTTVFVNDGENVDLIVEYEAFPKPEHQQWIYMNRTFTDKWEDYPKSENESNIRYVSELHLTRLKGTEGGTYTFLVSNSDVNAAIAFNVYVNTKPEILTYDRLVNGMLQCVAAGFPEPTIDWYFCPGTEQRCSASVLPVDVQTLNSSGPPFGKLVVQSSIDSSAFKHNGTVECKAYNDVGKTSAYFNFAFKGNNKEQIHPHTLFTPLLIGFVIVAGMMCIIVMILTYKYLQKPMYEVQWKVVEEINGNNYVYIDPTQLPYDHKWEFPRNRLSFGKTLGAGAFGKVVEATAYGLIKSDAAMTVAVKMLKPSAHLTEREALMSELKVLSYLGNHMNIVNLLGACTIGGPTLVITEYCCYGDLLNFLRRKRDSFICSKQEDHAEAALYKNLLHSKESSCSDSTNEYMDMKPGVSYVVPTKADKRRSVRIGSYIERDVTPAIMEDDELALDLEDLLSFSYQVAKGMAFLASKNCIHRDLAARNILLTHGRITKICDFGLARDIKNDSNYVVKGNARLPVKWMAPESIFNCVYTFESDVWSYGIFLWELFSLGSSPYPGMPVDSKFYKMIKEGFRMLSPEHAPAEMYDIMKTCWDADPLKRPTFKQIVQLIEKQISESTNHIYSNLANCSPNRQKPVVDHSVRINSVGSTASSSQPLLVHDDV
Sequence of UniProt Q9UQL6 (whole entry, looked up): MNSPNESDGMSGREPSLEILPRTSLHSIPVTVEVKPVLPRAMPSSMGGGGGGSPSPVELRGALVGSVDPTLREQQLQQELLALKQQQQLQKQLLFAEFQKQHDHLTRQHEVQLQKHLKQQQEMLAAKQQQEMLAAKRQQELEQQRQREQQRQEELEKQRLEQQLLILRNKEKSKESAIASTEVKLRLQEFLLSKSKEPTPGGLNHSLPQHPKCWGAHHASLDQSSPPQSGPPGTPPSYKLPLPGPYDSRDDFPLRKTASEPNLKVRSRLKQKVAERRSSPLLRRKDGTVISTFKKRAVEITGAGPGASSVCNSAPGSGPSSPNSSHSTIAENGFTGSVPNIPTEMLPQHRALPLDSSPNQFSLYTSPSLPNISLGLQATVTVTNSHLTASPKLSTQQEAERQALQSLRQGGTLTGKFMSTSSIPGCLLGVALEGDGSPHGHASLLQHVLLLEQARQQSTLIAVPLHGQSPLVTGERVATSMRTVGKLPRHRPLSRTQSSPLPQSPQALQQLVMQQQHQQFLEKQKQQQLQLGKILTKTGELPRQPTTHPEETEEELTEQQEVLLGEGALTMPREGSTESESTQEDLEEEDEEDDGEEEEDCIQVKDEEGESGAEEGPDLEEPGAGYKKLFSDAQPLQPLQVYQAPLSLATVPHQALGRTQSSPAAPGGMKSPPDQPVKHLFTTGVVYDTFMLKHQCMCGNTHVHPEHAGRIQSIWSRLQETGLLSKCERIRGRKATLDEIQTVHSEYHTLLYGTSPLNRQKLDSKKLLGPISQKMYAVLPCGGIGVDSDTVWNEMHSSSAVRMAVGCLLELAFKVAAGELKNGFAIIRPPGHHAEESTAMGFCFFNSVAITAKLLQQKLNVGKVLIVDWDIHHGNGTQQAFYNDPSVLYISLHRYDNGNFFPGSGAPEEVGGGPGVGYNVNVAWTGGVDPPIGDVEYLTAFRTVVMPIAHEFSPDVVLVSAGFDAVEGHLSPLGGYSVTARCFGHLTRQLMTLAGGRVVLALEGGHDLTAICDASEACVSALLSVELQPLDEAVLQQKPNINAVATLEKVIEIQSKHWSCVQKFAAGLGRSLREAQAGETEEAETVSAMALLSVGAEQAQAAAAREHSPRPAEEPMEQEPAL
Sequence of UniProt P03952 (whole entry, looked up): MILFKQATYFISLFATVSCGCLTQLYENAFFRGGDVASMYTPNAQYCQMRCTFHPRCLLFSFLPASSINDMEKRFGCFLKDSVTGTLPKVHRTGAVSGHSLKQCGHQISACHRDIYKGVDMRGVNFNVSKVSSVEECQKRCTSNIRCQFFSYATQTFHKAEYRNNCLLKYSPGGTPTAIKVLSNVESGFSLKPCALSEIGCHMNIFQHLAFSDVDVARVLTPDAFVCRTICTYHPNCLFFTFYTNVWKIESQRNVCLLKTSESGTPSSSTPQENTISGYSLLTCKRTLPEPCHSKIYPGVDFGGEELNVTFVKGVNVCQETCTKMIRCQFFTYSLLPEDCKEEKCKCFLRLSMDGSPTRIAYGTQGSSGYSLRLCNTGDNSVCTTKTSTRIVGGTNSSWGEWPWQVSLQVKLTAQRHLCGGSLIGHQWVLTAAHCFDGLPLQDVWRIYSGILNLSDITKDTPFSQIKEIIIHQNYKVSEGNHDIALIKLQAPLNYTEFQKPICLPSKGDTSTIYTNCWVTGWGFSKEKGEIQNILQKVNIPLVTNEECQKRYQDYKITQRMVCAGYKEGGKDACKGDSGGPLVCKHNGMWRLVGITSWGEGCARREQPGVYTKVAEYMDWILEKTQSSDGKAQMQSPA
Sequence of UniProt P43358 (whole entry, looked up): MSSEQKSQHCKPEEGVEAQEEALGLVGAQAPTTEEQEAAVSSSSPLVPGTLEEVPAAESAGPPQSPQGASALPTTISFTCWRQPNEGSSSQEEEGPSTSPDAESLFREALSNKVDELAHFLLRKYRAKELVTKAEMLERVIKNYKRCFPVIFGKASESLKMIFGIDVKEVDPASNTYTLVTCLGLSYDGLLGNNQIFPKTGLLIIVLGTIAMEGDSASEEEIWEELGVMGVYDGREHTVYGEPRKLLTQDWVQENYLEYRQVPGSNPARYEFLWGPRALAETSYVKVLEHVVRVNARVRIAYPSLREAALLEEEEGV
Sequence of UniProt P08173 (whole entry, looked up): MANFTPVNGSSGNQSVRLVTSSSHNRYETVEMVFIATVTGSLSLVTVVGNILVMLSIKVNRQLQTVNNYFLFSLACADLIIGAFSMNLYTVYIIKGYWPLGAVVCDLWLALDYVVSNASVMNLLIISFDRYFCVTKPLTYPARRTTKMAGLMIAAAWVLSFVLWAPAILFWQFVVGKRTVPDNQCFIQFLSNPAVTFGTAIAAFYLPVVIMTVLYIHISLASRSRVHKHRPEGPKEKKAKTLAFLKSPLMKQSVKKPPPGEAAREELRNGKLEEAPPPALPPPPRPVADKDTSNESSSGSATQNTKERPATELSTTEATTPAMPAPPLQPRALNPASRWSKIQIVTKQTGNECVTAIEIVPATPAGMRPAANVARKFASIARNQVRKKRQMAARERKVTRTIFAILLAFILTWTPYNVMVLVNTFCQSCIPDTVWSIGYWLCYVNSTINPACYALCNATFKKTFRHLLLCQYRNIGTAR
Sequence of UniProt P28065 (whole entry, looked up): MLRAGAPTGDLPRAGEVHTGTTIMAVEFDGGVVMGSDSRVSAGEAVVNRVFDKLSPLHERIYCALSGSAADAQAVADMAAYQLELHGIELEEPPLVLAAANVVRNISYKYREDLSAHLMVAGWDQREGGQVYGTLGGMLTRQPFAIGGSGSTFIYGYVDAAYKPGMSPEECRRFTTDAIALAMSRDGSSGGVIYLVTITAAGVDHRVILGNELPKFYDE

SMILES | target or system | test | system | setting | scale | quantity | result
O=C(CCNC(=O)CNC(=O)CC(c1ccccc1)(c1ccccc1)c1ccccc1)NCC1CCN(C(=O)c2ccc(F)cc2)CC1 | CHRM4 (Homo sapiens, UniProt P08173) | ligand displacement, radioligand | – | cell membranes | – | IC50 | > 30 µM
OB1c2sccc2C=NN1Cc1ccccc1 | Plasma kallikrein (KLKB1, Homo sapiens, UniProt P03952) | enzyme activity, inhibitor | – | – | – | IC50 | > 100 µM
COC1CN([C@H]2CC[C@H]([C@@]3(C)Oc4c(Cl)cc(C(=O)NCc5c(SC)cc(C)[nH]c5=O)c(C)c4O3)CC2)C1 | – | RNA-seq, refers to: SGIP1 | human, whole blood | dose not given, 24 h | baseline: pretreatment baseline | log2 fold change | 6.5
COc1cc2c(c(OC)c1OC)-c1c(cc3c(c1OC)OCO3)CC(C)C(C)C2 (stereo not shown) | CYP3A, rat | poziotinib metabolism to M1, inhibitor | rat liver microsomes, 0.3 mg/mL | 30 min, together with: poziotinib 5 µM | – | IC50 | 2.55 µM
Cc1ccccc1NC(=O)C(C(F)(F)F)C(F)(F)F | Rhomboid protease AarA | enzyme activity, inhibitor, fluorescence | – | – | – | IC50 | 25.9 µM
CN1CCC[C@@H]1C(=O)N[C@@H](Cc1ccc(-c2ccccc2)cc1)B(O)O | Proteasome subunit beta type-9 / Proteasome subunit beta type-10 (Homo sapiens, UniProt P28065+P40306) | β1i activity, inhibitor | – | immunoproteasome, together with: Ac-PAL-AMC | – | IC50 | > 10 µM
Cc1c(Cc2ccc(Cl)c(O[C@@H](C)C(=O)O)c2)c2ccc(C(=O)N[C@@H](C)c3ccc(C(C)(C)C)cc3)cc2n1CC1CCC1 | PPARG | ligand displacement, TR-FRET | – | – | – | IC50 | 0.00256 µM
Cc1ccc(NC(=O)C(C(F)(F)F)C(F)(F)F)cn1 | Rhomboid protease AarA | enzyme activity, inhibitor, fluorescence | – | – | – | IC50 | 27 µM
O=C(Cc1ccc(OCc2ccccc2)cc1)NC1(C(=O)O)CCN(C(=O)c2ccc(-c3cccc(Cl)c3)cc2)CC1 | S1PR3 (Homo sapiens, UniProt Q99500) | antagonist, GloSensor cAMP | – | – | – | IC50 | > 10 µM
Cc1c(Cc2ccc(OC(C)(C)C(=O)O)cc2)c2ccc(C(=O)N[C@@H](C)c3ccc(C(C)(C)C)cc3)cc2n1C | PPARG ligand-binding domain | reporter gene, luciferase reporter | HEK293T, Gal4-PPARγ LBD | – | – | IC50 | 33.5 µM
COC(=O)C1=CNC=C(C(=O)OC)C1c1ccc(F)c(C(F)(F)F)c1 | SCN5A (Homo sapiens, UniProt Q14524) | ion current, inhibitor, patch clamp | CHO | pH 7.4 | – | IC50 | > 10 µM
O=C1C(Cl)=C(NCCN2CCOCC2)C(=O)c2ncccc21 | KMT5A (Homo sapiens, UniProt Q9NQR1, C311S) | enzyme activity, radiometric filter | – | 8 h, 1 µM enzyme C270S variant, together with: 0.75 µM SAM, 1.5 µM H4K20 peptide | – | IC50 | 2.2 µM
COC(=O)CCCCCNC(=O)Cc1ccc(Nc2ncc(F)c(-c3cc(F)c4nc(C)n(C(C)C)c4c3)n2)cc1 | HDAC1 | enzyme activity, inhibitor | – | – | – | IC50 | > 1 µM
Cc1c(Cc2ccc(OC(C)C(=O)O)cc2)c2ccc(C(=O)N[C@@H](C)c3ccc(C(C)C)cc3)cc2n1C (stereo partly shown) | PPARG ligand-binding domain | reporter gene, luciferase reporter | HEK293T, Gal4-PPARγ LBD | – | – | IC50 | 16 µM
Cc1ccc(C[C@H]2CON=C(c3cc(C)nnc3Oc3cccc(Cl)c3F)N2)c(Cl)c1 | serine palmitoyltransferase (Zymoseptoria tritici, UniProt F9X349+F9XMN6) | – | – | – | – | IC50 | 0.011 ± 0.002 µM
Cc1cc(C)nc(NC(=S)N2CCN(Cc3ccc(C(F)(F)F)cc3)CC2)c1 | LDHA (Homo sapiens, UniProt P00338) | enzyme activity, inhibitor | – | – | – | IC50 | > 57 µM
Cc1c(Cc2ccc(Cl)c(OC(C)C(=O)O)c2)c2ccc(C(=O)NC(C)c3cc(F)cc(C(C)(C)C)c3)cc2n1C (stereo not shown) | PPARG | ligand displacement, TR-FRET | – | – | – | IC50 | 0.014 µM

SMILES | target or system | test | system | setting | scale | quantity | result
COc1ccccc1CNC(=O)C(C(F)(F)F)C(F)(F)F | Rhomboid protease AarA | enzyme activity, inhibitor, fluorescence | – | – | – | IC50 | 8 µM
COC(=O)CCCCCCCNC(=O)Cc1ccc(Nc2ncc(F)c(-c3cc(F)c4nc(C)n(C(C)C)c4c3)n2)cc1 | HDAC1 | enzyme activity, inhibitor | – | – | – | IC50 | > 1 µM
Cc1cc(C)c(S(=O)(=O)N(CC(=O)O)c2ccc(Nc3ccnc(N4CCCC4)n3)cc2)c(C)c1 | GSK3A (Homo sapiens, UniProt P49840) | enzyme activity, inhibitor | – | – | – | IC50 | > 100 µM
Cc1c(Cc2cccc(OC(C)(C)C(=O)O)c2)c2ccc(C(=O)N[C@@H](C)c3ccc(C(F)(F)F)cc3)cc2n1C | PPARG ligand-binding domain | reporter gene, luciferase reporter | HEK293T, Gal4-PPARγ LBD | – | – | IC50 | 3.69 µM
CN(C)c1ccc2c(-c3cc(C(=O)NCCNC(=O)[C@H](CC4CCCCC4)NC(=O)c4ccc(CNc5ccccn5)s4)ccc3C(=O)O)c3ccc(=[N+](C)C)cc-3oc2c1 | PPM1D (Homo sapiens, UniProt O15297) | enzyme activity, inhibitor | – | – | – | IC50 | 0.327 µM
CCC(Oc1cccc(Cc2c(C)n(C)c3cc(C(=O)NC(C)c4cccc(C(C)(C)C)c4)ccc23)c1)C(=O)O (mixture of isomers) | PPARG ligand-binding domain | reporter gene, luciferase reporter | HEK293T, Gal4-PPARγ LBD | – | – | IC50 | 141 µM
Cc1ccc(S(=O)(=O)N2CC(NC(=O)c3ccc(F)cc3)C2=O)cc1 (stereo not shown) | Rhomboid protease AarA | enzyme activity, inhibitor, fluorescence | – | – | – | IC50 | 71 µM
Cc1nn(-c2cccc(N)c2)c(=O)c2cnc(Nc3ccc(N4CCNCC4)cc3)nc12 | CSNK1E (Homo sapiens, UniProt P49674) | SelectScreen kinase | – | – | – | IC50 | > 10 µM
CCN(CC)CC(=O)Nc1cccc(-n2cc(-c3ccc4ccc(-c5cn(-c6cccc(NC(=O)CN(CC)CC)c6)nn5)cc4c3)nn2)c1 | KIT (Homo sapiens, UniProt P10721) | enzyme activity, inhibitor | – | – | – | IC50 | > 10 µM
O=C1CC(c2ccccc2)N1S(=O)(=O)c1cccc(-c2ccccc2)c1 (stereo not shown) | Rhomboid protease AarA | enzyme activity, inhibitor, fluorogenic peptide | – | 8 min pre-incubation | – | IC50 | 70 µM
Cc1ccc(CNC(=O)[C@@H]2Cc3cccc(c3)Oc3cccc(c3)C[C@H](N)C(=O)N[C@@H](CCc3ccccc3)C(=O)N2)cc1 | Psmb1/Psmb8 (Rattus norvegicus, UniProt P18421+P28064) | enzyme activity, inhibitor | – | together with: Ac-ANW-aminocoumarin, PA28α 12 nM | – | IC50 | 56 µM
CC[C@H](C)[C@@H]1NC(=O)[C@H](Cc2ccc(O)cc2)NC(=O)CSC[C@@H](C(N)=O)NC(=O)[C@H](Cc2c[nH]cn2)NC(=O)[C@H](Cc2ccc(O)cc2)NC(=O)[C@H](CC(=O)O)NC(=O)[C@H](Cc2ccc(O)cc2)NC(=O)[C@H](CC(C)C)NC(=O)[C@H](CCCNC(=N)N)NC1=O | Melanoma-associated antigen 4, MAGE homology domain (Homo sapiens, UniProt P43358) | binding, inhibitor, TR-FRET displacement | – | together with: Alexa647-MTP-1 | – | IC50 | 0.419 ± 0.055 µM
CC(C)(C)OC(=O)NCCOc1ccccc1NC(=O)C(C(F)(F)F)C(F)(F)F | Rhomboid protease AarA | enzyme activity, inhibitor, fluorescence | – | – | – | IC50 | 5.7 µM
Cc1c(Cc2cccc(OC(C)(C)C(=O)O)c2)c2ccc(C(=O)N[C@@H](C)c3ccc(F)c(C(C)(C)C)c3)cc2n1CC(C)C | PPARG | ligand displacement, TR-FRET | – | – | – | IC50 | 0.00133 µM
O=C(NCc1cccc(-n2cccn2)c1)C(C(F)(F)F)C(F)(F)F | Rhomboid protease AarA | enzyme activity, inhibitor, fluorescence | – | – | – | IC50 | 11 µM
Cc1c(Cc2cccc(OC(C)(C)C(=O)O)c2)c2ccc(C(=O)N[C@@H](C)c3cccc(C(C)(C)C)c3)cc2n1CC(C)(C)C | PPARG | ligand displacement, TR-FRET | – | – | – | IC50 | 0.01 µM
O=C(CNc1cccc2c1C(=O)N(C1CCC(=O)NC1=O)C2=O)NCCOCCOCCOCC(=O)N1CCC(CNC(=O)c2cccc(-c3noc(C(F)(F)F)n3)c2)(c2nc(-c3ccccc3)cs2)CC1 (stereo not shown) | HDAC5 (Homo sapiens, UniProt Q9UQL6) | enzyme activity, inhibitor | – | – | – | IC50 | 3.38 µM

For quick reference, copied from above:
SMILES | target or system | test | system | setting | scale | quantity | result
COC(=O)CCCCCCCNC(=O)Cc1ccc(Nc2ncc(F)c(-c3cc(F)c4nc(C)n(C(C)C)c4c3)n2)cc1 | HDAC1 | enzyme activity, inhibitor | – | – | – | IC50 | > 1 µM
Cc1cc(C)c(S(=O)(=O)N(CC(=O)O)c2ccc(Nc3ccnc(N4CCCC4)n3)cc2)c(C)c1 | GSK3A (Homo sapiens, UniProt P49840) | enzyme activity, inhibitor | – | – | – | IC50 | > 100 µM
Cc1c(Cc2cccc(OC(C)(C)C(=O)O)c2)c2ccc(C(=O)N[C@@H](C)c3ccc(C(F)(F)F)cc3)cc2n1C | PPARG ligand-binding domain | reporter gene, luciferase reporter | HEK293T, Gal4-PPARγ LBD | – | – | IC50 | 3.69 µM
CN(C)c1ccc2c(-c3cc(C(=O)NCCNC(=O)[C@H](CC4CCCCC4)NC(=O)c4ccc(CNc5ccccn5)s4)ccc3C(=O)O)c3ccc(=[N+](C)C)cc-3oc2c1 | PPM1D (Homo sapiens, UniProt O15297) | enzyme activity, inhibitor | – | – | – | IC50 | 0.327 µM
